Published values from different studies.
Each numbered part is a random draw from the data of one study; scales do not carry over between parts. Substitutions count along the parent as printed.

Series 1 — method: DHFR PCA, deep sequencing; medium: yeast; added: (+)-ABA 0 µM; relative to: wild-type fitted maximum; direction: higher = stronger binding; measurement: relative binding score
Target: ABI1, truncated, D143A, DHFR fusion (Arabidopsis thaliana)
Notes: methotrexate growth selection, single substitutions
Starting sequence: PYL1, truncated, DHFR fusion (Arabidopsis thaliana); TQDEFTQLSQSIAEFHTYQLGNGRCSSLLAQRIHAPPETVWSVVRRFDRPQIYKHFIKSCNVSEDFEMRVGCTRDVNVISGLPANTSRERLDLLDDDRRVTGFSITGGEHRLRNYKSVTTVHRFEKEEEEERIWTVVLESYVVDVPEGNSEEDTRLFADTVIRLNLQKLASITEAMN; partner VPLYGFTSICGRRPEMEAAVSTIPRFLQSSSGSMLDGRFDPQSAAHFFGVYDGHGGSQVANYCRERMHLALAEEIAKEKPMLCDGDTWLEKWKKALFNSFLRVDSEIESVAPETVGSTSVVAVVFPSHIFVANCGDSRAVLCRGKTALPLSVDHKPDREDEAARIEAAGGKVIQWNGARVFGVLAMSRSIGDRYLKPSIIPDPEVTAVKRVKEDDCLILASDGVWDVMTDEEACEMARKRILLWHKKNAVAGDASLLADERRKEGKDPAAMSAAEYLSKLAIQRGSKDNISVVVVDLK
Substitution = F56P; value = 1.61%
Substitution = H34A; value = 39.7%
Substitution = N85G; value = 24.1%
Substitution = H16N; value = 3.72%
Substitution = S26G; value = 20.4%
Substitution = I133A; value = 31.8%
Substitution = C60K; value = -11.7%
Substitution = R45T; value = -5.75%
Substitution = A30F; value = 14.8%
Substitution = S27I; value = -1.99%
Substitution = S42A; value = 36.3%
Substitution = L112Y; value = -2%
Substitution = I33N; value = -1.5%
Substitution = E127T; value = 31.2%
Substitution = S150C; value = 11.3%
Substitution = Y53I; value = -1.05%
Substitution = P50V; value = 18.3%

Series 2 — target: CCNE2, cyclin fold, Cln2 fusion (human); method: yeast growth competition, sequencing; medium: yeast; notes: weak parent motif; relative to: not given; direction: higher = stronger binding; measurement: normalised enrichment score
Starting sequence: CDT1 docking peptide (human); PPARRRLRLSVDE; partner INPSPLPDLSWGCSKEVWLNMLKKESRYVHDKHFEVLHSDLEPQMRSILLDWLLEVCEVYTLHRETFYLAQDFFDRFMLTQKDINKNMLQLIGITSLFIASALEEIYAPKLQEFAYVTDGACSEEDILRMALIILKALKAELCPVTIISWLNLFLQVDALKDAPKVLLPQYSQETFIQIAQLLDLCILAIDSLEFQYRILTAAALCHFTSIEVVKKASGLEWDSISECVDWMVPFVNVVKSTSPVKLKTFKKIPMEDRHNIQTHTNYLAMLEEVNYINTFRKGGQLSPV
Substitution = PAARRRLRLSVDE [P2A]; value = 1.03
Substitution = PPARRALRLSVDE [R6A]; value = 1.03
Substitution = PPARKRLRLSVDE [R5K]; value = 0.453
Substitution = PPAARRLRLSVDE [R4A]; value = 0.719
Substitution = PPARKRLRFSVDE [R5K L9F]; value = 1.02
Substitution = APARRRLRLSVDE [P1A]; value = 0.661
Substitution = PPARRRLRLAVDE [S10A]; value = 0.0807
Substitution = PPARARARLSVDE [R5A L7A]; value = 0.0284
Substitution = PPARRRLRLSVDA [E13A]; value = 1.22

Series 3 — method: RNAcompete; form: RNA; medium: in vitro; concentration: 20 nM; notes: 7-mer, probes averaged, single round; relative to: mean of 7-mers; direction: higher = stronger binding; measurement: 7-mer Z-score
Target: PABPC1L2, full length, GST fusion (mouse, UniProt A0ABA7IW68)
Residues (chain): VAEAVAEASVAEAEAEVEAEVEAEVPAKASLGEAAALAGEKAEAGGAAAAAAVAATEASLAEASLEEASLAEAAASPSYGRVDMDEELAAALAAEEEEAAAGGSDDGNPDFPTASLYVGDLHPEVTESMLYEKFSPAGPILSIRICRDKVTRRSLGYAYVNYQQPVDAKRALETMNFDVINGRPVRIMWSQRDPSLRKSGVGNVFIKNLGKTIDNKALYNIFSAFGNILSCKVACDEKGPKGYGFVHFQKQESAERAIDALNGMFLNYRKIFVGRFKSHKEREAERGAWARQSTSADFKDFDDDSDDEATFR
Oligonucleotide = UCAGAAC; value = -0.151
Oligonucleotide = GCCCUUG; value = -0.325
Oligonucleotide = UGAUGGU; value = -0.117
Oligonucleotide = CUCUGAC; value = -0.213
Oligonucleotide = GGCAACU; value = 0.111
Oligonucleotide = UAUCUGG; value = -0.137
Oligonucleotide = UAAGAUG; value = 0.075
Oligonucleotide = GUCUGCU; value = -0.389
Oligonucleotide = GGAUCGC; value = -0.0681
Oligonucleotide = ACGAUGC; value = -0.0754
Oligonucleotide = CAACUAA; value = 0.222
Oligonucleotide = UUGCGCC; value = -0.44
Oligonucleotide = CGACGAU; value = 0.0859
Oligonucleotide = CGACCAC; value = -0.103
Oligonucleotide = CUACACU; value = -0.206
Oligonucleotide = GUGUCCC; value = -0.331
Oligonucleotide = CGGGCGU; value = -0.0718
Oligonucleotide = CCAAUUA; value = -0.0428
Oligonucleotide = CGUGAUC; value = -0.293

Series 4 — target: NFE2L1, bZIP domain (human); method: DHFR protein complementation; medium: yeast; relative to: wild-type JUN-FOS pair; direction: higher = stronger binding; measurement: binding fitness
Notes: single substitutions, most at no-binding floor
Starting sequence: JUN, bZIP domain (human); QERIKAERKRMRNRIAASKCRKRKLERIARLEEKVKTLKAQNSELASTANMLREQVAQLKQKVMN; partner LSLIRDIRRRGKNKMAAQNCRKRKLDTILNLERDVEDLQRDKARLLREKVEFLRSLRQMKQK
Substitution = A40G; value = -1.52 natural log
Substitution = E32G; value = -1.5 natural log
Substitution = T48A; value = -1.47 natural log
Substitution = V35Q; value = -1.41 natural log
Substitution = T37R; value = -1.35 natural log
Substitution = L52W; value = -1.52 natural log
Substitution = S43I; value = -1.64 natural log
Substitution = V35L; value = -1.36 natural log
Substitution = A29E; value = -1.58 natural log
Substitution = L38I; value = -1.17 natural log
Substitution = N42A; value = -1.43 natural log
Substitution = L31I; value = -1.48 natural log
Substitution = A49G; value = -1.45 natural log
Substitution = L45H; value = -1.5 natural log
Substitution = K39T; value = -1.13 natural log
Substitution = T48G; value = -1.5 natural log
Substitution = L31T; value = -1.5 natural log
Substitution = S43V; value = -1.37 natural log
Substitution = L45G; value = -1.49 natural log
Substitution = A57K; value = -1.5 natural log

Some of these lines once more (series 3):
Oligonucleotide = CUCUGAC; value = -0.213
Oligonucleotide = GGCAACU; value = 0.111
Oligonucleotide = UAUCUGG; value = -0.137
Oligonucleotide = UAAGAUG; value = 0.075
Oligonucleotide = GUCUGCU; value = -0.389
Oligonucleotide = GGAUCGC; value = -0.0681
Oligonucleotide = ACGAUGC; value = -0.0754
Oligonucleotide = CAACUAA; value = 0.222
Oligonucleotide = UUGCGCC; value = -0.44
Oligonucleotide = CGACGAU; value = 0.0859
Oligonucleotide = CGACCAC; value = -0.103
